Measurements from different studies.
Each line is one published result; not all experiments were run side by side.
Target: Receptor-interacting serine/threonine-protein kinase 1 (RIPK1, Homo sapiens, UniProt Q13546)

`CNC(=O)C[C@H](Cc1ccc(C#N)cc1)NC(=O)c1cc(-c2ccc(CN[C@H](C)c3ccc(C)cc3)o2)ccc1Cl` — result for “activity vs control”: 93% (enzyme activity, inhibitor; 1 µM).
The remaining binding of `C=CC(=O)N1CCCC(n2c(=O)c3ncccc3n(Cc3ccc(Oc4ccccc4)cc3)c2=O)C1` (stereo not shown) is reported as 93% (cell-free assay, competition with immobilised ligand; 1 µM).
For `CCN1CCN(Cc2ccc(C(=O)Nc3ccc(C)c(NCc4cnc5[nH]ccc5c4OC)c3)cc2C(F)(F)F)CC1`, the remaining binding was 28% (binding, competition with immobilised ligand; 1 µM).
For `O=C(Nc1ccc(Oc2ncnc3[nH]cc(-c4ccccc4)c23)c(F)c1)c1c2n(n(-c3cc(F)ccc3F)c1=O)CCCC2`, the inhibition was 1% (enzyme activity, inhibitor; 0.5 µM).
With `CCN1CCN(Cc2ccc(NC(=O)c3ccc(C)c(NC(=O)c4cncc(-c5cccs5)c4)c3)cc2C(F)(F)F)CC1` the remaining binding was 37% (binding, competition with immobilised ligand; 1 µM).
`CNC(=O)C1CCN(c2cc(C)c(F)cc2NC(=O)c2ccc(-c3cc(O)ccc3C)c(C)c2)CC1` gave a remaining binding of 100% (binding, competition with immobilised ligand; 1 µM).
`CCn1cc(C(=O)O)c(=O)c2c(N)c(F)c(NC3CCCCC3)cc21` gave an inhibition of 4.7% (kinase activity; 0.1 µM, added: ATP at Km).
`O=C(Cc1ccc(OCc2ccccc2)cc1)NC1(C(=O)O)CCN(C(=O)c2ccc(-c3cccc(Cl)c3)cc2)CC1` — result for “activity vs control”: 125% (enzyme activity, inhibitor; 10 µM).
The remaining binding of `COc1c(Cl)cccc1Nc1c(-c2ccncc2C#C[C@@]2(C)CCCN2C(=O)/C=C/CN(C)C)[nH]c2c1C(=O)NCC2` is reported as 100% (binding, competition with immobilised ligand; 3 µM).
The remaining binding of `Cc1ccc(-c2c(/C=C(\C#N)C(=O)NC(C)C)n(CCCO)c3ncnc(N)c23)cc1` is reported as 100% (cell-free assay, competition with immobilised ligand; 1 µM).
For `C=CC(=O)N1CCc2ccc(-n3c(=O)ccc4cnc5ccc(-c6cnn(C)c6)cc5c43)cc21`, the remaining binding was 100% (KINOMEscan; 1 µM; baseline: DMSO control).
With `CC(C)=CC1OC(C)(C)C2C=C3C(=O)C(Cl)=CC(O)C3C3C(O)C4OC4C(=O)C132` (stereo not shown) the remaining binding was 83% (cell-free assay, competition with immobilised ligand; 10 µM).
`CN1CC[C@@H](COc2cnc(C#N)cc2-c2ccn3nc(NC(=O)C4CC4)cc3c2)C1` gave an inhibition of -8% (enzyme activity, inhibitor; 1 µM).
For `COc1cc(Nc2nc(C)cc(-c3cnn4nc(OC)ccc34)n2)cc(C(F)(F)F)c1`, the remaining binding was 93% (binding, competition with immobilised ligand; 1 µM).
`Nc1ncc2c(n1)-c1c([nH]c3ccc(C4=CCOCC4)cc13)CCC2` gave a remaining binding of 89% (binding, competition with immobilised ligand; 1 µM).
For `Cc1cnc2nc1Nc1cccc(c1)COC/C=C/COCc1cc(ccc1OCCN1CCOCC1)N2`, the remaining binding was 87% (binding, competition with immobilised ligand; 0.1 µM).
`C=CC(=O)Nc1cc(-c2nn(C3CCN(CCNC(=O)[C@H](C)CCC45CC6CC(CC(C6)C4)C5)CC3)c3ncnc(N)c23)ccc1Oc1ccccc1` has an inhibition of 11.7% (inhibitor, KiNativ profiling; biochemical; 2 µM).
For `COc1cc(Nc2nccc(-c3cnn4nc(OC)ccc34)n2)cc(C(F)(F)F)c1`, the remaining binding was 96% (binding, competition with immobilised ligand; 1 µM).
With `CNC1C[S+]2CC[S+]3CC[S+](C1)[Ru-4]321([N]=C=S)[n]2c3ccc(OC)cc3c3c4c(c5cc(F)c[n+]1c5c32)C(=O)NC4=O` (stereo not shown) the remaining binding was 96% (KinomeScan; 0.1 µM; baseline: untreated).

For quick reference, copied from above:
For `COc1cc(Nc2nc(C)cc(-c3cnn4nc(OC)ccc34)n2)cc(C(F)(F)F)c1`, the remaining binding was 93% (binding, competition with immobilised ligand; 1 µM).
